Assay results pooled from the literature.
Each numbered part is a random draw from the data of one study; scales do not carry over between parts. Changes are numbered by the printed parent chain.

Set 1
Target: Sal-like protein 4, full length isoform B (SALL4, Homo sapiens, UniProt Q9UJQ4-2, residues 1-616)
Technique: universal PBM
Form: double-stranded DNA, one strand shown
Matrix: in vitro
Concentration: not given
Setting: 8-mer, flanks averaged, mean of replicates
Reading: higher = stronger binding
Oligonucleotide | E-score
CTCTGATC | -0.157
ATTTTGTC | 0.262
ATGGACAT | 0.142
GCGCGCAC | -0.169
CCATTTCC | 0.125
CGGGTCCC | -0.381
GCTTAAGC | 0.0959
GAATTTAA | 0.12
ACCTTGAT | 0.0622
CAAATGTC | 0.0453
CCGATCAG | -0.196
AAGCTACC | 0.00354
CCTCACAA | -0.0466
CTAACCTC | 0.0653
TCGCAAAA | 0.142
AATTCCCA | 0.164
AATCTGCT | 0.158
GCCTTCTA | -0.0563
ACTTGCAT | 0.108
GCTCGACC | -0.29
CTTCCCGC | -0.174
AAAGCAAT | 0.187
GGCCGACC | -0.34
ACATTAAG | 0.264
GATTGTGA | 0.15

Set 2
Target: CCNA2, cyclin fold, Cln2 fusion (human)
Technique: yeast growth competition, sequencing
Matrix: yeast
Setting: strong parent motif
Baseline: not given
Reading: higher = stronger binding
Starting sequence: KIF20B docking peptide (human); KRAKRKLYTSEIS
Change | normalised enrichment score
T9A | 1.23
Y8A | 0.477
L7A | 0.853
I12A | 1.36
R2A | 1.28
K1A | 1.7

Set 3
Target: FOSL2, bZIP domain (human)
Technique: DHFR protein complementation
Matrix: yeast
Setting: single substitutions, most at no-binding floor
Baseline: wild-type JUN-FOS pair
Reading: higher = stronger binding
Starting sequence: JUN, bZIP domain (human); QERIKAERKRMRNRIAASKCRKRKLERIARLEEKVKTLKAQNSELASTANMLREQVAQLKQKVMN; partner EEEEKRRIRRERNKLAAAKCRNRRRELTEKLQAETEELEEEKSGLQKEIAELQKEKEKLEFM
Change | binding fitness [natural log]
I28S | -0.172
R53A | -0.189
M51P | -1.27
K39Y | -0.551
L52R | -0.959
A49T | -0.407
R30E | 0.249
L45S | -0.957
L45Q | -1.2
Q41L | -0.0484
L52M | -0.249
N42E | -1.1
E32D | -0.011
E54P | -1.15
T48M | 0.124
N42T | -0.00831

Set 4
Target: ABI1, truncated, D143A, DHFR fusion (Arabidopsis thaliana)
Technique: DHFR PCA, deep sequencing
Matrix: yeast
Setting: methotrexate growth selection, single substitutions
Added: (+)-ABA 0.032 µM
Baseline: wild-type fitted maximum
Reading: higher = stronger binding
Starting sequence: PYL1, truncated, DHFR fusion (Arabidopsis thaliana); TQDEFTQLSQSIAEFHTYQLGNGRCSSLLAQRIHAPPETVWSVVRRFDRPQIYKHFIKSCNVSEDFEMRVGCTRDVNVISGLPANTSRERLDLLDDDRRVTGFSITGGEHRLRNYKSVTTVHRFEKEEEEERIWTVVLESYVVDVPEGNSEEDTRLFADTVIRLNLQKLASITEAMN; partner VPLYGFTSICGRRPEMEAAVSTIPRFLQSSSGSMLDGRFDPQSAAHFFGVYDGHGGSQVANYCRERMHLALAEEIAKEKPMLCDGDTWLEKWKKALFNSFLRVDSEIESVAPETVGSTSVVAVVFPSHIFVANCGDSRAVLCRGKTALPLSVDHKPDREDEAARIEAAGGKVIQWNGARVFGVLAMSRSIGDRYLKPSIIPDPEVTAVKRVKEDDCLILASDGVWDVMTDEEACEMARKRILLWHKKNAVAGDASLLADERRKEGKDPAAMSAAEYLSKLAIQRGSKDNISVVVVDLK
Change | relative binding score [%]
K168D | 0.316
P146K | -3.15
G108W | -1.44
H16F | -0.62
D96S | 2.98
Q19P | 45.8
H34N | 39.8
S171I | -2.48
H55C | 25.6
F66Y | 3.69
H110F | 21.5
S63V | 8.25
R49K | 48.9

Set 5
Target: RING finger protein unkempt homolog, zinc fingers 1-6, GST-SBP tag (UNK, Homo sapiens, UniProt Q9C0B0, residues 30-357)
Technique: RNA Bind-n-Seq
Form: RNA
Matrix: in vitro
Concentration: not given
Setting: RNA with constant flanks, human and mouse sites, ends assumed
Baseline: input RNA pool
Reading: higher = stronger binding
Shared flanks, not repeated: GGGAGUUCUACAGUCCGACGAUC … CAACAGAGGAUUGAGCAUCA
Construct (chain): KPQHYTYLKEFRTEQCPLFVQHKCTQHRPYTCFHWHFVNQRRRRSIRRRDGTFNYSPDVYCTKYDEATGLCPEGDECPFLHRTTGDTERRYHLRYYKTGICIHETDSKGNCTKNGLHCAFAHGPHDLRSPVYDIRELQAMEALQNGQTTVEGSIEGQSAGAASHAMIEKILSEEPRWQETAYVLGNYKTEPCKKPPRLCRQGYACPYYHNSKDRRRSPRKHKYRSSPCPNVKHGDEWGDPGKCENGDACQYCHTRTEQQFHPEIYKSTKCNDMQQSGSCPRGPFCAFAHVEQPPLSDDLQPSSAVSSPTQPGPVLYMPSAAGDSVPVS
Oligonucleotide | bound/input enrichment [ratio]
UCCCAUGGUGGAGGAGACAGCAGCAUGAUGAUGAUGCCUAUGACCUUCUACUUUGGCUUUAAGAAUGUGGAACUACUGUUUUCCGGUUUGGUGAUCAAUACAGCUGGAGAAAUGGCUGGA | 0.242
GUUAAAAGGAAGGUCAUCAUAUUCCUCAAAAAGUGCCUUCUCUGUAAAGUGGGUGAAGACCUCUGUCGUGGAUCUGUGCCUGCCUUAAUGCCGCCAGACCAUCAUGUAGCGGUGGACAUG | 0.393
UCUCCUAUGUUACCAAUGUGUAUCGUCUCCUUCUCCCUAAAGUGUACUUAAUCUUUGCUUUCUUUGCACAAUGUCUUUGGUUGCAAGUCAUAAGCCUGAGGCAAAUAAAAUUCCAGUAAU | 0.18
CAUUCCUGUCCCUUCCUGGCUUGAGCUCUUGGCUGUAUUCUGUGUGCCUCUACCAUGUCUGCUGUUUGGGUCUCUGCGCUGUGUGUUCUCAGGUGCAGCCAUGACUCCCCACUCUGUGCA | 0.388
ACGAGAUAUUUUUGCUCAGAGAAGGGAUGUUUGAGCGGAUUCCUGAUAUAGUUGUAUGGCCAACAUGUCAUGAUGAUGUAGUUAAGAUUGUGAAUCUAGCUUGCAAAUAUAACCUUUGUA | 0.344
UUAGCUCUCUUAACGCUGCCUGAAAGAGAGCUGGAUGACACUGUAUCUUUGGAGCAUCAGAAGUUUCUAAAGCAUAAAUUCUUUGUGCAAGAAAUUAUAUUUGAUCGCUGCUUAGACAAG | 0.714
UGAUACCGACAGCAAUAGGAUCUUUUGAGUAUUCAACUCGGAGUAACAGAAUUUGUCAUCAACGGCAUGAAUGGCUCAGCCGAGGAAAUAGAGCAGCUUUCAUCUAAAUCCAAGCGUGUC | 0.247
GUAUCAGUGUGCAAAGAGCUUCCCUAUGUUAAUACGUUACGGCAAACCAUAUGGAGUAAGAGGAGUCAUGUUUUCUCCCCUAGCUCUGCCAGUAACUAGCCUUGUCACCUUGGUCAAAAC | 0.195
GGCGCCAAGGGGAUCCGCACGCUGCUCUUUGCUCUGAUGAUGUCCCUUCCUGCGCUGUUUAACAUCGGCCUCCUGCUUUUCCUGGUCAUGUUCAUCUACGCCAUCUUUGGGAUGUCCAAC | 0.0878
UGUUCUAACGCUGCCUUUGCUUUAAAACAGUAUUACUUGCGUUACCUAGAAAAGUACGAGAAAGUUCAUCAUUUUGGGGAGGAUGAUGAUGAGGUACCACCAGGCAAUCCAAAGCCACAG | 0.633
CCCUGUUCCGUUUUGGUUGAUGGGUGUUUGGGAGGGGGCUGCGGGGGAUACUUUUUUUUUUAGUUCUUCUUUACCCUUAAGGUCAGCCCAUCACAAAAACAGAAACCGUUAAAUACCCCC | 0.806

Set 6
Target: RNA binding protein fox-1 homolog 2, RRM domain, GST-SBP tag (RBFOX2, Homo sapiens, UniProt O43251-10, residues 100-194)
Technique: RNA Bind-n-Seq
Form: RNA
Matrix: in vitro
Concentration: 365 nM
Setting: natural RNA segment, single round, ends assumed
Baseline: no-protein control
Reading: higher = stronger binding
Shared flanks, not repeated: GGGAGUUCUACAGUCCGACGAUC … UGGAAUUCUCGGGUGCCAA
Target sequence (chain): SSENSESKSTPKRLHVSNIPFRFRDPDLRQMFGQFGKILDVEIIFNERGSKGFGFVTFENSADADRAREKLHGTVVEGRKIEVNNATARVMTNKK
Oligonucleotide | RBNS enrichment (R)
GAUAUCCUGAACUUAGAGCUCUUCAAUCCUAAGAUUUUCAUGAAAAGCCUCUCACUUGAACCCAAACCAGAGUACUCUUACUGCCUCUUUUCUAAAUGUUCAGGAAAAGC | 0.531
AGUAUUUAACUUGAAAUUCAUCAUGGGAGUCUGCUGCUAUACCAGGCACAAGAUAAAACUCCAAAAUUUCUGUUUACAUUGACCUUUACAUUUAAAGCUGUUCAUCCAUG | 0.33
CUGACCUAGCUCAUAGGGCAAAUGGUCCUAAUAGGAUGGGCAAUCCAGAUGCCUGAGCCCCUUCACUCCGACAGCACCAGCGCCUAAUGCAGCCUUUUCAUUCUUGCCAU | 0.364
UAUCACCCACACAGCACCAUCUCCCCGGCUUGGCUUGGUUAGAAUGGUGAGGGGUUUACAGGGUAAGGGGACAAGACUACACACACUAGCGUGGUAGGACUAGAUUUUUG | 0.446
CUGCUAUUUGAAGUGUAAUUGAGAAGGAAAAUUUUAGCGUGCUCACUGACCUGCCUGUAGCCCCAGUGACAGCUAGGAUGUGCAUUCUCCAGCCAUCAAGAGACUGAGUC | 1.35
UCAGACCGUAUUACAACAAAAACAAACGUCCCUUUCGUUCCUUGUGAGAUUUUCAUCCAAAGCCACACUCCUAGCCUAAGGCACUUCAUCUUUACGAUAUAAAAUGAUGG | 0.51
AUGCUGCUAUCAUUUAUUUGGUCCUUUGAAGAUCUCAGUAGCUGAGGGAGAUGGCACACGGGGCUCAGCCCUGUUGGGAAACUGGUGUGGAGACCCUUAAAUCCACACUG | 0.274
AAAAUUUAGUUAAAAAUUGAAGUAUUUCUGUCAUAGACAAAAUUACUCUGUUUUAACAUAUUCCUGGUGGACUAUAUCAACCUUUUGUGCCCUGAAAACUUGAAGGUUAA | 0.295
AGUGGCACGAUUUAUUUCAAACUAGGCCAGCUGGGAUUCCAGCUUUUCUUCUACUAGUCUGAUGUUUUAUAAAUCAAAACCUGGUUUUCCUUCUCUGACAUUUUUUUUUU | 0.425
GAACAGAACCCAGCCCAUAAGAGACAUUCUCAGAUGAAACUCUGUUUUCUUGCCCCAGUCAGGCUCAAGCCCUGUGGUUGUAGGAAUAAAGCCUGUGAUCUCAAGAAGUG | 0.287
CAAGUGUUAUAAAAAAAAAGAAAAAGAACAAAGAAACCCUUUAUUUCAUUAAAUGAUUUUUUCUGGUGGUUGUCAAGAAACAAAAGACCAAAAGAGCCUUUUUGUCUUUC | 0.588
UUUAGAACUGGUAGAGCCUACCUAAGGGUCUCCCCAUCUCCAGGAACUCUCAUGUAGGAUUUUUAAAGGACCGGUAAAGAAUGGUGUUUGAGAAAUGGUGUAUGAUGCCU | 1.95

Repeated from above (set 3):
Change | binding fitness [natural log]
L45S | -0.957
A49T | -0.407
N42E | -1.1
N42T | -0.00831
Q41L | -0.0484
E32D | -0.011
L52R | -0.959
R53A | -0.189
